Measured values collected from several papers.
Each numbered part is a random draw from the data of one study; scales do not carry over between parts. Changes are numbered by the printed parent chain.

Sample 1
Target: Ras GTPase-activating protein-binding protein 1, C-terminal RGG region (G3BP1, Homo sapiens, UniProt Q13283)
UniProt Q13283, sequence (whole entry, looked up): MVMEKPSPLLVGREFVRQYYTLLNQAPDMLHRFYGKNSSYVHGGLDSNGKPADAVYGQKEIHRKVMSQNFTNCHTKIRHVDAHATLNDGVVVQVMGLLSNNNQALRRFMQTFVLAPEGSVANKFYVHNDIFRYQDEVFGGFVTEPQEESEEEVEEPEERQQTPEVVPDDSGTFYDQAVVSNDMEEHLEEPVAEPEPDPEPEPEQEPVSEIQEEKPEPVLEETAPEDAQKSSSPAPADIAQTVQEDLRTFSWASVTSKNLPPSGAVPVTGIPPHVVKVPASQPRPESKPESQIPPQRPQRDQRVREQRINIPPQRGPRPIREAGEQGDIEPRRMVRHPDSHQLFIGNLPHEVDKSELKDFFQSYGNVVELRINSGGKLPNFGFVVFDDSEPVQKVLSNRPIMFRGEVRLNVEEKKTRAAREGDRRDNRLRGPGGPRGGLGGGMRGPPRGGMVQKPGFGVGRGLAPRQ
Method: RNA Bind-n-Seq
Form: RNA
Matrix: in vitro
Concentration: 1 µM
Setting: whole 134-nt RNA, ends assumed
Together with: 150 mM KCl
Relative to: input library
Direction: higher = stronger binding
Constant ends, left off below: GGGAGUUCUACAGUCCGACGAUC … UGGAAUUCUCGGGUGUCAAGG
| Sequence | log2 enrichment |
| --- | --- |
| UGGCCCUGGUGGCAUGCGGGGAGGAAGAGGUGGCCUCAUGGAUCGUGGUGGUCUCGGUGGAAUGUUCAGAGGUGGCCGUGGUGGAGACAG | 2.26 |
| CCUGUGCUACACAUCGUAUGUACCGAAUCGGGCCCCCCCGGCCCCCCCGGCCCCCCCGGGGAAAGUAUUAUGUUACGCCGUUCGGAUCUG | -1.69 |
| UCCUGUGCUACACAUCGUAUGUACCGAAUCGGAAAAAAAGGAAAAAAAGGAAAAAAAGGAAAGUAUUAUGUUACGCCGUUCGGAUCUGCA | -1.02 |
| UAACUUUAGAGGAGGAUCUGAUGGAUAUGGCAGUGGACGUGGAUUUGGGGAUGGCUAUAAUGGGUAUGGAGGGGGACCUGGAGGUGGCAA | -1.02 |
| UCAAGUCCUGUGCUACACAUCGUAUGUACCGAAUCGGAAAAAGGAGGAAAAAGGAAAGUAUUAUGUUACGCCGUUCGGAUCUGCACUUCC | -1.41 |
| CUGUGCUACACAUCGUAUGUACCGAAUCGGGGCCCCCCGGGGCCCCCCGGGGCCCCCCGGGGAAAGUAUUAUGUUACGCCGUUCGGAUCU | -2.62 |
| UCCUGUGCUACACAUCGUAUGUACCGAAUCGGUUUUUUGGGGUUUUUUGGGGUUUUUUGGAAAGUAUUAUGUUACGCCGUUCGGAUCUGC | -0.423 |
| UCCUGUGCUACACAUCGUAUGUACCGAAUCGGGAAAAAAAGGGAAAAAAAGGGAAAGGGAAAGUAUUAUGUUACGCCGUUCGGAUCUGCA | -0.724 |
| ACCAUGCAGGUGGGCAUCUUUGGGAAGUGGGGCAUGGGGGGGAUAGGGAGGGGGGUAACACUUUGGGAACAGGUGGUCCCAGGUCGUUUC | -0.302 |

Sample 2
Target: CCNF, cyclin fold, Cln2 fusion (human)
Method: yeast growth competition, sequencing
Matrix: yeast
Setting: weak parent motif
Relative to: not given
Direction: higher = stronger binding
Starting sequence: PKN2 docking peptide (human); DSTVTKLDFDLEP
| Substitution | normalised enrichment score |
| --- | --- |
| DSTVTALDFDLEP [K6A] | -0.401 |
| DSTVTKLDFDLAP [E12A] | -0.128 |
| DSAVTKLDFDLEP [T3A] | 0.616 |
| DATVTKLDFDLEP [S2A] | -0.122 |
| DSTATKLDFDLEP [V4A] | 0.428 |
| DSTVTKADFDLEP [L7A] | -0.42 |
| DSTVAKLDFDLEP [T5A] | -0.242 |

Sample 3
Target: NFE2L2, bZIP domain (human)
Method: DHFR protein complementation
Matrix: yeast
Setting: single substitutions, most at no-binding floor
Relative to: wild-type JUN-FOS pair
Direction: higher = stronger binding
Starting sequence: JUN, bZIP domain (human); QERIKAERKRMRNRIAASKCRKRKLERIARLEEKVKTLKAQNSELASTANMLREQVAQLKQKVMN; partner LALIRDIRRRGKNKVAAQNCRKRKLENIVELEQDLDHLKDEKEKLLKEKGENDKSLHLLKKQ
| Substitution | binding fitness |
| --- | --- |
| T37W | -1.46 natural log |
| A40D | -1.41 natural log |
| L31M | -1.55 natural log |
| L31F | -1.52 natural log |
| L45S | -1.44 natural log |
| L52K | -1.48 natural log |
| A46M | -1.36 natural log |
| A40S | -1.4 natural log |
| L52E | -1.42 natural log |
| R53C | -1.37 natural log |
| E33W | -1.21 natural log |
| A29P | -1.45 natural log |
| S43T | -1.34 natural log |
| A46Q | -1.28 natural log |
| K34G | -1.43 natural log |
| E44F | -1.52 natural log |
| K34H | -1.03 natural log |

Sample 4
Target: ABI1, truncated, D143A, DHFR fusion (Arabidopsis thaliana)
Method: DHFR PCA, deep sequencing
Matrix: yeast
Setting: methotrexate growth selection, single substitutions
Together with: (+)-ABA 0.39 µM
Relative to: wild-type fitted maximum
Direction: higher = stronger binding
Starting sequence: PYL1, truncated, DHFR fusion (Arabidopsis thaliana); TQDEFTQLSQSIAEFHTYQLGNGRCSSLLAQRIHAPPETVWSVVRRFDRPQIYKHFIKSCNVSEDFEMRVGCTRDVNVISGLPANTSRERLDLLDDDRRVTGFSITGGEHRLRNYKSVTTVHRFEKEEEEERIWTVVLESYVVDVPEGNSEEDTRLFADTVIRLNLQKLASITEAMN
| Substitution | relative binding score |
| --- | --- |
| D65C | 15.8% |
| N177C | 62.8% |
| S140R | 13.7% |
| T17V | -0.334% |
| S140T | 11.3% |
| S9F | 19.7% |
| T119A | -2.37% |
| V118L | 3.17% |
| S11L | 13.4% |
| R123Q | 63.6% |
| L8G | -6.26% |
| V121S | -6.72% |
| K58V | -4.42% |
| R155W | -10% |
| G71V | -5.42% |
| E130Y | 21.9% |
| C60S | 1.08% |
| F103A | -11.3% |
| R132T | 62.2% |

Sample 5
Target: RNA binding protein fox-1 homolog 2, RRM domain, GST-SBP tag (RBFOX2, Homo sapiens, UniProt O43251-10, residues 100-194)
Method: RNA Bind-n-Seq
Form: RNA
Matrix: in vitro
Concentration: 365 nM
Setting: natural RNA segment, single round, ends assumed
Relative to: no-protein control
Direction: higher = stronger binding
Constant ends, left off below: GGGAGUUCUACAGUCCGACGAUC … UGGAAUUCUCGGGUGCCAA
| Sequence | RBNS enrichment (R) |
| --- | --- |
| AGGCUGCCCGGGUUCCCAUUCUGCUUCUGCCACUUCCAGCUGUGUGGCUUUAGGUGAGCCUUCACCUUUUGGUGCCUUCGUUUCCUCAUUUAGCACCUACCUCCUAGAGC | 0.381 |
| GAAAGGCAUAUGUAUAACCAAACUCCAAGUGAUAACCAGACCCAUCUCUCCUCCACCUUGACAAAAGCAGAUUAUAGUAUACAAGGUAGGAAUUCCUGUCCUAUUUGAGA | 0.857 |
| UUUUUAAAUGCUACUUUGUAAAGGUGACCUUUAAAAAAUAAAAGGAAAAUAAAGAAUGUUAGUUUCAUUCUGCCGCUUUAUUUUUUUAACUUUUUCAGAAUAUAGUUUUA | 0.724 |
| UGGAGGAAAAAGCACCCGUUGAGAACAAACAGACCUCAAUAAACAAGAAUAAUCAUGUGACCAUGGACUCUGCUUCCGCACCUUCUGUUCUUGGUUUCCCAUCUGUGGUC | 0.389 |
| AUAGAAACAAUUUCCUAUUACACAGAAAUGACUAAUUCCAGAGUCUCAUGAUAUAAUUUGCUAUAACAAUAUUGUAUUAUGCCUUGAAGUUUUAAGCAUUUAAUAUAAAA | 0.378 |
| CACAGUGGAGCAGCUUGUCCACAAAUAUAGUAAUUACUAUUUAUUGCUCUAAGGAAGAUUAAAAAAAGAUAGGGAAAAGGGGGAAACUUCUUUGAAAAAUGAAACAUCUG | 0.835 |
| CCCCGAGAAUUCCUCUUCUGGAUCCCAGUUUGCAGCAAACCCCACACCCCAGCUCACACAGCAAAAACAAUGGACAGGCCCAGAGGCUGAAGCAAACAGUGUCCCUUCUG | 0.454 |
| AAGAGAAGAAAUGAGUGACCAUCCAGCCUUUCCCAAUUAGACUUCCUCUCCUUCCACCCCUCAUUUCCUUUUUGCACACAUUACAGGUGGUGUGUUCUGUGAUAAUGAAA | 0.627 |

Further values, each from its own experiment
| Substance | target | assay | system | setting | scale | quantity | result |
| --- | --- | --- | --- | --- | --- | --- | --- |
| PhoQ, residues 284 288 289 292 302 303 SLKLQV | PhoP, residues 12 14 15 18 19 LYFRQ (Escherichia coli, UniProt P23836) | Sort-seq, measured: YFP reporter | E. coli | PhoQ-PhoP variant library, together with: 10 µM Mg2+ | relative to: high Mg2+ state, higher = stronger signaling | fold induction | 0.666 |

For quick reference, copied from above (sample 2):
| Substitution | normalised enrichment score |
| --- | --- |
| DSTVTKADFDLEP [L7A] | -0.42 |
| DATVTKLDFDLEP [S2A] | -0.122 |
| DSTVTKLDFDLAP [E12A] | -0.128 |
| DSAVTKLDFDLEP [T3A] | 0.616 |
| DSTATKLDFDLEP [V4A] | 0.428 |
| DSTVTALDFDLEP [K6A] | -0.401 |
